Results pooled from the literature.
± marks the error that the study gave.
Aminopeptidase N: Aminopeptidase N (Neisseria meningitidis, UniProt Q9JYV4)
CPL: CPL (Toxoplasma gondii, UniProt Q6DMN0)
AR: Androgen receptor (AR, Homo sapiens, UniProt P10275)
UniProt P10275, sequence (whole entry, looked up): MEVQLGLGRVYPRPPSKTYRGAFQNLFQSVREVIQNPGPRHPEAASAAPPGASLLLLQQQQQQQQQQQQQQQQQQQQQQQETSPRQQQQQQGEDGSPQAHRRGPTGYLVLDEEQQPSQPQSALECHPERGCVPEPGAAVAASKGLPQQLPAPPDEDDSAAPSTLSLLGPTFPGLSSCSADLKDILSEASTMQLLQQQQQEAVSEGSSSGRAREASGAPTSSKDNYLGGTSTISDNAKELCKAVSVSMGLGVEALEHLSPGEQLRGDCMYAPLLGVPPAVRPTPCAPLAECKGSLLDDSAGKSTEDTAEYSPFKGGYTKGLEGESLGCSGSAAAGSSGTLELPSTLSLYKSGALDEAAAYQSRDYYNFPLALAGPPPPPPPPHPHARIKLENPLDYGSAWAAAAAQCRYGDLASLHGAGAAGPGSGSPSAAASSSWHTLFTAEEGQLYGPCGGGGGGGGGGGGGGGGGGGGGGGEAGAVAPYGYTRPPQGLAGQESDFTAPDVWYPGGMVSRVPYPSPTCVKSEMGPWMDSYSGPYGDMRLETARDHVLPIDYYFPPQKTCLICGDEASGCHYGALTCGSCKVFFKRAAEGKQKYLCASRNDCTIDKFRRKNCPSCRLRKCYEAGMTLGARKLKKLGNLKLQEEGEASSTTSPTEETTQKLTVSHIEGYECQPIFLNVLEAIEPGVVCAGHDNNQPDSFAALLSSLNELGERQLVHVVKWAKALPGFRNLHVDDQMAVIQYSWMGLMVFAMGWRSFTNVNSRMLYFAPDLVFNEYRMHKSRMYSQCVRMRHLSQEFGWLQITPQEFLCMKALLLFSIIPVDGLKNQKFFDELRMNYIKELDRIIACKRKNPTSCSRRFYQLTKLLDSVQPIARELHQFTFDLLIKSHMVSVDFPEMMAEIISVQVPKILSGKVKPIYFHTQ
UniProt P00691, sequence (whole entry, looked up): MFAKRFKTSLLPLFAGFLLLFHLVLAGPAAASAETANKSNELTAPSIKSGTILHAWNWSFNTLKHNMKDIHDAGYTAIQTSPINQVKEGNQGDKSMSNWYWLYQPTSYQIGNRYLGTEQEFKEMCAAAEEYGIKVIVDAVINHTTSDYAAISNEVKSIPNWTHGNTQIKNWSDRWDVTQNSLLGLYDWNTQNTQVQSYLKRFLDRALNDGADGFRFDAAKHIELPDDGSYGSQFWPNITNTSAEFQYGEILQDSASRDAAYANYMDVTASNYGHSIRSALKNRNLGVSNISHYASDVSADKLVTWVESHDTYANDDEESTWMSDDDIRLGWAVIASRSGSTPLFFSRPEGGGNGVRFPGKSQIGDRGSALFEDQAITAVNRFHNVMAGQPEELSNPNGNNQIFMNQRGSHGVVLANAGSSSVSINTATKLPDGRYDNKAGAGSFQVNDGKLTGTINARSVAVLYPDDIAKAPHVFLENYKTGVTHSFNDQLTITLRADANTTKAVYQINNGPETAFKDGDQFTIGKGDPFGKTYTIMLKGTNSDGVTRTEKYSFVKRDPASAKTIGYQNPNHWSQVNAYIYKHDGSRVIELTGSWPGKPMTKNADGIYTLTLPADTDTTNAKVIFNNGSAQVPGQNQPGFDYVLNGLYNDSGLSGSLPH
UniProt P17931, sequence (whole entry, unmodified, looked up): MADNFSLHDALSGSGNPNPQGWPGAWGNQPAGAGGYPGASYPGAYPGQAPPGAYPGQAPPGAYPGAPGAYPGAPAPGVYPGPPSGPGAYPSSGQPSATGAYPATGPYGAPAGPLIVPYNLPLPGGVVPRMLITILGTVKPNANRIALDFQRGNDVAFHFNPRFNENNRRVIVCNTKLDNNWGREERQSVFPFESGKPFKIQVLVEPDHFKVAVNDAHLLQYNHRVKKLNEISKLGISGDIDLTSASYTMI
UniProt Q16762, sequence (whole entry, looked up): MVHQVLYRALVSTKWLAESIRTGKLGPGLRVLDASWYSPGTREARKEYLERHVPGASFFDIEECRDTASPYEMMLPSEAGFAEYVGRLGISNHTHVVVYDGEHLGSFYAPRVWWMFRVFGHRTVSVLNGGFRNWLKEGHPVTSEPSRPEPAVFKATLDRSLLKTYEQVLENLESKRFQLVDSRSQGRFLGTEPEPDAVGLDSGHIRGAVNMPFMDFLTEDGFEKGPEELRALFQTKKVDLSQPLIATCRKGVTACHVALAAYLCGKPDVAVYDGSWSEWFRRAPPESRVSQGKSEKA
UniProt Q15858, sequence (whole entry, looked up): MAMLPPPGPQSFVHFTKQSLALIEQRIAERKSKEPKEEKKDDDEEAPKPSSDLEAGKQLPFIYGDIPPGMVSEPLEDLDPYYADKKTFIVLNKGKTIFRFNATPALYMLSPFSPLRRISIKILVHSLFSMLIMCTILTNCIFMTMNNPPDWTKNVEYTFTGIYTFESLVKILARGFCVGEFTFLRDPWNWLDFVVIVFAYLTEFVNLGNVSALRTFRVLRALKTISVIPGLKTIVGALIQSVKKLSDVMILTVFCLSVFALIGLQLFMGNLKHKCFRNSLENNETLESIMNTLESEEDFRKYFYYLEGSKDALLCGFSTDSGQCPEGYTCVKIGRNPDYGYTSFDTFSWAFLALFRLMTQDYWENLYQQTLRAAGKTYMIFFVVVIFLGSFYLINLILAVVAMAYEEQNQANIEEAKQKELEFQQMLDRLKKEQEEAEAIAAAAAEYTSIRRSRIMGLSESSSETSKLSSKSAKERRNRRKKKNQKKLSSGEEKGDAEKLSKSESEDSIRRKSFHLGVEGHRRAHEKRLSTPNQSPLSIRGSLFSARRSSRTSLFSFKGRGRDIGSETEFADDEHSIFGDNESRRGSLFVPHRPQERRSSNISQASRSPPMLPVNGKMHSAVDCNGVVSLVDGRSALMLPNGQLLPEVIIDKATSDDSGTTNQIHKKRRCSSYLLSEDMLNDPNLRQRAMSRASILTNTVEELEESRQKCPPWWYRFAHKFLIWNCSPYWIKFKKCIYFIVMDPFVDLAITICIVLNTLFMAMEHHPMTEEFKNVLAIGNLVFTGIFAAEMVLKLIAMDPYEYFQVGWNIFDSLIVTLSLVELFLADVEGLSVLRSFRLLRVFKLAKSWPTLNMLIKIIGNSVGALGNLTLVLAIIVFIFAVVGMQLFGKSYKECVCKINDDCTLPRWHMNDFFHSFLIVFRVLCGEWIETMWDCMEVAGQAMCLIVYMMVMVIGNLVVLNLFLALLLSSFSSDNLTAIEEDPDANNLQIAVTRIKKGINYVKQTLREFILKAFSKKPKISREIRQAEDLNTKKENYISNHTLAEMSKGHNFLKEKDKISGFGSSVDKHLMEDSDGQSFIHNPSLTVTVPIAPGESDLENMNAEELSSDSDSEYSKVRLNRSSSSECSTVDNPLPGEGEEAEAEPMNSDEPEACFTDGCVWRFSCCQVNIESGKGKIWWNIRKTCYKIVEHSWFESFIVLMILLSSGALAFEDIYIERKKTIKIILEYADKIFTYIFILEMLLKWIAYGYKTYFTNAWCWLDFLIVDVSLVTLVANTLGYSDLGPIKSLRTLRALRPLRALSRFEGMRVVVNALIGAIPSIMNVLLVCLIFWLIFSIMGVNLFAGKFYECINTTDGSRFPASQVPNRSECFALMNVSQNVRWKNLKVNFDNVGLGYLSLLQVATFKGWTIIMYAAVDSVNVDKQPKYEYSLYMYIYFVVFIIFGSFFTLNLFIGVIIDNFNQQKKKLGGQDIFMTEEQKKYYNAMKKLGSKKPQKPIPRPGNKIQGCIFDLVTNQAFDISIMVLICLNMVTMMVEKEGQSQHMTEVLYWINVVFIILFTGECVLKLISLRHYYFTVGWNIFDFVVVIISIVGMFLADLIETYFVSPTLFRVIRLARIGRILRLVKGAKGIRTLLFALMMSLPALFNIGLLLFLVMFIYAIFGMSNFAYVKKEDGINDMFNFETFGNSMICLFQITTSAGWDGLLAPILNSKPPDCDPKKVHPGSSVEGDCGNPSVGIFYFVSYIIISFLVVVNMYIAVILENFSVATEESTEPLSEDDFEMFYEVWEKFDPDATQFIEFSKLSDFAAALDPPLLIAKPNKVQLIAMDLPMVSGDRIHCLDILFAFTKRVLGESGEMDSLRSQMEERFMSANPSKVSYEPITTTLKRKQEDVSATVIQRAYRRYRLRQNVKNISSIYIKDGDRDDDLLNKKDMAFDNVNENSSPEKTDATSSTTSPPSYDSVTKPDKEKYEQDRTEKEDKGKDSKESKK
UniProt O00141, sequence (whole entry, looked up): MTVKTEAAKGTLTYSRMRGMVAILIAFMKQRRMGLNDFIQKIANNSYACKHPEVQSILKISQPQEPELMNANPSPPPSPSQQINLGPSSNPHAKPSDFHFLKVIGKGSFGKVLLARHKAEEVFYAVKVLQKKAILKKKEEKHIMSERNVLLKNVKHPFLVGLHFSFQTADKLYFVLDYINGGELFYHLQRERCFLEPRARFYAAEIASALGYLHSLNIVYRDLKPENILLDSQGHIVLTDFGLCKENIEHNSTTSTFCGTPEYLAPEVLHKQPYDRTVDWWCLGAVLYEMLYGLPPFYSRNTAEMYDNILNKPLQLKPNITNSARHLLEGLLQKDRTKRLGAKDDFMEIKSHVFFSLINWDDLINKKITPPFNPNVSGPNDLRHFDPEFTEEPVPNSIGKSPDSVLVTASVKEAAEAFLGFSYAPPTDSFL
UniProt Q9H008, sequence (whole entry, looked up): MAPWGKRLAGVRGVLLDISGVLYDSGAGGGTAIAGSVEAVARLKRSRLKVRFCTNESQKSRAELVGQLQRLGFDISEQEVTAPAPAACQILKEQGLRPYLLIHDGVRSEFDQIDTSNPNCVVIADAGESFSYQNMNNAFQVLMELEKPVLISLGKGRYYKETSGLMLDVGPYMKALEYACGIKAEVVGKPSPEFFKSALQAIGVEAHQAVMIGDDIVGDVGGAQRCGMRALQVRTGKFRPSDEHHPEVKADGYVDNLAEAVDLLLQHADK

C=CC[C@H](N)C(=O)Nc1ccc2c(CC(N)=O)cc(=O)oc2c1 — Km (Aminopeptidase N; enzyme activity, substrate; pH 7.5, 37 °C): 59.7 ± 2.7 µM
CC[C@H](C)[C@H](NC(=O)[C@H](CC(N)=O)NC(=O)[C@H](CC(N)=O)NC(=O)[C@@H](N)CCCNC(N)=O)C(=O)N1C[C@@H](n2cc(-c3ccc(N)cc3)nn2)C[C@H]1C(=O)N[C@@H](Cc1c[nH]c2ccccc12)C(=O)N[C@@H](CO)C(N)=O — activity class (Envelope glycoprotein gp160, gp120 (env, Human immunodeficiency virus type 1 group M subtype B, UniProt P35961); HIV-1; concentration not given): active
CC(C)P(=S)(NP(=[Se])(C(C)C)C(C)C)C(C)C — number of binding sites (Alpha-amylase (Bacillus subtilis, UniProt P00691); fluorescence quenching; concentration not given, 298 K): 0.85 ± 0.09
CCN(Cc1ccccc1)C(=O)CCc1nc(CN2CCN(C(=O)Cc3ccc(OC)c(OC)c3)CC2)no1 — V1/2 of inactivation (Sodium channel protein type 9 subunit alpha (SCN9A, Homo sapiens, UniProt Q15858); whole-cell patch clamp; HEK stable; 100 nM): -75 ± 8.05 mV
CC(=O)N[C@H]1C(O)O[C@H](CO)[C@@H](O[C@@H]2O[C@H](CO)[C@H](O)[C@H](O)[C@H]2O)[C@@H]1O (some centres unmarked) — –ΔH (Galectin-3 (LGALS3, Homo sapiens, UniProt P17931); binding, isothermal titration calorimetry): 13.7 kcal/mol
CN(C)CCCSC(=S)N1CCN(C(=O)/C=C/c2coc3ccccc3c2=O)CC1 — affinity loss (Nucleoprotein (N, Tomato spotted wilt virus, UniProt P25999, R94A/Y184A); microscale thermophoresis; reference: mutant over wild type): 180 fold
CC(C)CCN(c1nc(C#N)nc(N2CCOCC2)n1)C(C)c1ccc(F)cc1 (centres unmarked) — selectivity ratio (CPL; enzyme activity, inhibitor; reference: human over Toxoplasma IC50): 0.58
O=C(O)/C=C/c1cc(O)cc(O)c1 — inhibition (Cholinesterase (BCHE, Homo sapiens, UniProt P06276); enzyme activity, inhibitor, Ellman; 250 µg/mL): 63.4%
O=C1SCCC1NC(C(=O)NCc1ccccc1)C1CC1 (centres unmarked) — Km (Thiosulfate sulfurtransferase (TST, Homo sapiens, UniProt Q16762); activator, item: sodium thiosulfate; 17.1 µM, together with: KCN 60 mM): 51100 ± 19100 µM
CCC(C)Sc1nc2c([nH]1)c(=S)n(C)c(=O)n2C (centres unmarked) — remaining activity (AR; reporter gene, antagonist, PSA-luciferase; HeLa-A6; 10 µM, 24 h, together with: 5 nM dihydrotestosterone; reference: maximal activity): 103%
CC[C@H](C)[C@H](NC(=O)[C@H](CC(N)=O)NC(=O)[C@H](CCC(=O)O)NC(=O)[C@H](CCC(=O)O)NC(=O)[C@H](CCC(=O)O)NC(=O)[C@H](CC(N)=O)NC(=O)[C@H](CCCNC(=N)N)NC(=O)[C@@H]1CCCN1C(=O)[C@H](CCCCN)NC(=O)[C@@H](NC(=O)[C@@H](NC(=O)[C@H](C)NC(=O)[C@H](CC(=O)O)NC(=O)[C@H](CCSC)NC(=O)[C@@H]1CCCN1C(=O)[C@H](CCC(=O)O)NC(=O)[C@H](C)NC(=O)[C@H](Cc1ccc(OP(=O)(O)O)cc1)NC(=O)[C@H](CC(=O)O)NC(=O)[C@H](CO)NC(=O)[C@@H]1CCCN1C(=O)[C@H](CC(=O)O)NC(C)=O)C(C)C)C(C)C)C(=O)N[C@@H](Cc1ccc(OP(=O)(O)O)cc1)C(=O)N[C@@H](CO)C(=O)N[C@H](C(=O)N1CCC[C@H]1C(=O)N[C@@H](Cc1c[nH]cn1)C(=O)N[C@@H](CC(=O)O)C(=O)N[C@@H](CO)C(N)=O)C(C)C — binding stoichiometry (Ras GTPase-activating protein 1, SH2-SH3-SH2 region (RASA1, Homo sapiens, UniProt P20936, C236S/C261S/C372S/C402S); isothermal titration calorimetry; concentration not given, pH 8.0, together with: doubly phosphorylated p190RhoGAP peptide): 0.6 ± 0.1
C=C(C)C(=O)Oc1ccc(C(C)(C)c2ccc(OC(=O)C(=C)C)cc2)cc1 — maximum inhibition (Aromatase (CYP19A1, Homo sapiens, UniProt P11511); enzyme activity, inhibitor, tritiated water release; JEG-3; maximum observed effect concentration, together with: androstenedione 10 nM; reference: control): 40%
Cc1cc(O)cc(C)c1CC(N)C(=O)NC1CCNc2c(C(=O)NCc3ccccc3)cc(Cc3ccccc3)cc21 (centres unmarked) — Ke (Delta-type opioid receptor (Oprd1, Rattus norvegicus, UniProt P33533); GTPγS binding, antagonist; together with: SNC80): 16.7 nM
CC(=O)/C(C#N)=C/c1cccc(C(N)=O)c1 — -TΔS (Genome polyprotein, 3C protease (Human enterovirus D68, UniProt Q68T42, C1641Y/I1565V/I1594T/R1603K/Y1579H); isothermal titration calorimetry; enterovirus D68; DTT 0.1 mM): 0.201 kcal/mol
CC(=O)NCC(=O)NCC(=O)N[C@@H](Cc1ccc(OP(=O)(O)O)cc1)C(=O)NCC(=O)NCC(N)=O — substrate hydrolysis (Phospholysine phosphohistidine inorganic pyrophosphate phosphatase (LHPP, Homo sapiens, UniProt Q9H008); enzyme activity; concentration not given, 90 min, pH 7.8, together with: substrate 100 µM): 3.34%
CC(=O)NC(Cc1ccc(Br)c(Cl)c1)C(=O)N[C@@H](C)C(=O)N1CCC[C@H]1C(=O)N1CCC[C@H]1C(=O)N[C@@H](CCC(=O)O)C(=O)N[C@@H](Cc1c[nH]cn1)C(=O)N[C@@H](CO)C(=O)N[C@H](C(=O)N[C@@H](C)C(N)=O)[C@@H](C)OP(=O)(O)O (some centres unmarked) — inhibition (Serine/threonine-protein kinase Sgk1 (SGK1, Homo sapiens, UniProt O00141); enzyme activity, inhibitor; 10 µM): 0.19%
CC(=O)N[C@H]1CSC(=O)[C@H](CC(C)C)NC(=O)[C@H](CC(C)C)NC(=O)[C@H](Cc2ccccc2)NC(=O)[C@H](CC(=O)O)NC1=O — IC50 ratio (Accessory gene regulator protein C (Staphylococcus aureus, UniProt O33590); reporter gene, antagonist; P3-gfp reporter AH1747; reference: compound over AIP-III D4A): ~1000 fold
CC(COC(=O)c1ccccc1)OC(=O)C(N)Cc1ccccc1 (mixture of isomers) — Vmax (Serine hydrolase BPHL (BPHL, Homo sapiens, UniProt Q86WA6); hydrolysis, substrate): 0.0025 mM/min
Nc1nc2c([C@@H]3O[C@@H]4COP(=O)(O)O[C@H]5[C@@H](O)[C@H](n6cnc7c(=O)[nH]c(N)nc76)O[C@@H]5COP(=O)(O)O[C@H]4[C@H]3O)snc2c(=O)[nH]1 — dissociation rate constant k-3 (Cyclic di-GMP phosphodiesterase RocR (rocR, Pseudomonas aeruginosa, UniProt Q9HX69); substrate; 10 µM, second binding orientation, together with: 100 nM enzyme): 0.135 ± 0.007 s⁻¹
CCCCCCCCNP(=O)(Nc1ccccc1)O[C@@H]1O[C@H](CO)[C@@H](O)[C@H](O)[C@H]1F (some centres unmarked) — inactivation rate constant (Lysosomal acid glucosylceramidase (GBA1, Homo sapiens, UniProt P04062); enzyme activity, irreversible inhibitor; pH 5.5, 37 °C, together with: 2,4-dinitrophenyl beta-D-glucopyranoside): 0.1 min⁻¹
COc1cccc(CN(CCC(C)C)c2nc(C#N)nc(N3CCOCC3)n2)c1 — selectivity ratio (CPL; enzyme activity, inhibitor; reference: human over Toxoplasma IC50): 0.1
CC1(C(=O)O)CCCC2(C)C1CCC1(C)c3cocc3CCC12 (centres unmarked) — transcriptional activity (AR; reporter gene, antagonist; CV-1 transfected with AR; 10 µM, 24 h, together with: R1881 1 nM): no effect
CCC[C@H](N)C(=O)Nc1ccc2c(CC(N)=O)cc(=O)oc2c1 — Km (Aminopeptidase N; enzyme activity, substrate; pH 7.5, 37 °C): 28.8 ± 0.8 µM

Repeated from above:
C=C(C)C(=O)Oc1ccc(C(C)(C)c2ccc(OC(=O)C(=C)C)cc2)cc1 — maximum inhibition (Aromatase (CYP19A1, Homo sapiens, UniProt P11511); enzyme activity, inhibitor, tritiated water release; JEG-3; maximum observed effect concentration, together with: androstenedione 10 nM; reference: control): 40%
Cc1cc(O)cc(C)c1CC(N)C(=O)NC1CCNc2c(C(=O)NCc3ccccc3)cc(Cc3ccccc3)cc21 (centres unmarked) — Ke (Delta-type opioid receptor (Oprd1, Rattus norvegicus, UniProt P33533); GTPγS binding, antagonist; together with: SNC80): 16.7 nM
CC(=O)/C(C#N)=C/c1cccc(C(N)=O)c1 — -TΔS (Genome polyprotein, 3C protease (Human enterovirus D68, UniProt Q68T42, C1641Y/I1565V/I1594T/R1603K/Y1579H); isothermal titration calorimetry; enterovirus D68; DTT 0.1 mM): 0.201 kcal/mol
